Published values of several laboratories.
A part holds a random share of what one study measured. Values joined by “and” are separate records of one study, mostly repeats; a detail may differ.
Sequence of UniProt Q9BRS2 (whole entry, looked up): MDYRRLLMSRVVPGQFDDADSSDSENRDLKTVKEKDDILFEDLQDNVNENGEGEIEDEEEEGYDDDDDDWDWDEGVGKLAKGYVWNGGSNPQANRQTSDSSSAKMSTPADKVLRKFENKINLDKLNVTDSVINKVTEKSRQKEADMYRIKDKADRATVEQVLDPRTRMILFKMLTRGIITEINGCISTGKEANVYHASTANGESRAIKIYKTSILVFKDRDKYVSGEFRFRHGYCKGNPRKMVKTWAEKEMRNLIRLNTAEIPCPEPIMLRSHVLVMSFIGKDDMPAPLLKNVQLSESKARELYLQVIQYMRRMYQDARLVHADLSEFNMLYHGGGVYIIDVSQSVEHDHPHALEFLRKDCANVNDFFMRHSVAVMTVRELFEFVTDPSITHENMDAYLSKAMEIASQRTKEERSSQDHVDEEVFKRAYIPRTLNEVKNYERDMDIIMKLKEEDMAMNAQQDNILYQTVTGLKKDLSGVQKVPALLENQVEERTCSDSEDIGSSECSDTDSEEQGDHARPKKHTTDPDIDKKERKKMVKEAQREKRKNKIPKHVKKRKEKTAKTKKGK
Sequence of UniProt Q9H0K1 (whole entry, looked up): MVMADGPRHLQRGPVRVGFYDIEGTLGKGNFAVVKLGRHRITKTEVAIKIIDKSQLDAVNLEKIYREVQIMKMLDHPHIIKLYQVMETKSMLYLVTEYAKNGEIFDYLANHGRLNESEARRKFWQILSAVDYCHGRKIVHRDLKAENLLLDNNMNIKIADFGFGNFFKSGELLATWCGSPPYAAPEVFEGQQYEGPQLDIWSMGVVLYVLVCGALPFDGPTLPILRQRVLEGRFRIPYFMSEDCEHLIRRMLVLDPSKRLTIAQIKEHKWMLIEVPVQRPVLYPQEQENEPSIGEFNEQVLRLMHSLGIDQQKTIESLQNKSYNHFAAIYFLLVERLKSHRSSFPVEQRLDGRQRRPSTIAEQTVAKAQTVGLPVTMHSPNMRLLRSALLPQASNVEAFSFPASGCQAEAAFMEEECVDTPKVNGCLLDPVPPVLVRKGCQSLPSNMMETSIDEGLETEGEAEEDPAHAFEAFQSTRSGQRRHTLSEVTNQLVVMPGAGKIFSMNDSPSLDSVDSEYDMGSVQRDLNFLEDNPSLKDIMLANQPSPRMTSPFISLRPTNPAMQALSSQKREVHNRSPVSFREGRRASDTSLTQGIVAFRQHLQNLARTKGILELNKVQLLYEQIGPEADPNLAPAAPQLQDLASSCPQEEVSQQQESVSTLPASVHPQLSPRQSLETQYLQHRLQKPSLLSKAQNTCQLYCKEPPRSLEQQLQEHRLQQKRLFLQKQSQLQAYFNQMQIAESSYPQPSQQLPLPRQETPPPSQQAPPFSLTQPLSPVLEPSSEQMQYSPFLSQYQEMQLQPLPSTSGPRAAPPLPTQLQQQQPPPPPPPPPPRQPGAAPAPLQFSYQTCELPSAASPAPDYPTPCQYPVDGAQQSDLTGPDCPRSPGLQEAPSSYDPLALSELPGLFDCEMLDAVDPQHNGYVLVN
Sequence of UniProt P52333 (whole entry, looked up): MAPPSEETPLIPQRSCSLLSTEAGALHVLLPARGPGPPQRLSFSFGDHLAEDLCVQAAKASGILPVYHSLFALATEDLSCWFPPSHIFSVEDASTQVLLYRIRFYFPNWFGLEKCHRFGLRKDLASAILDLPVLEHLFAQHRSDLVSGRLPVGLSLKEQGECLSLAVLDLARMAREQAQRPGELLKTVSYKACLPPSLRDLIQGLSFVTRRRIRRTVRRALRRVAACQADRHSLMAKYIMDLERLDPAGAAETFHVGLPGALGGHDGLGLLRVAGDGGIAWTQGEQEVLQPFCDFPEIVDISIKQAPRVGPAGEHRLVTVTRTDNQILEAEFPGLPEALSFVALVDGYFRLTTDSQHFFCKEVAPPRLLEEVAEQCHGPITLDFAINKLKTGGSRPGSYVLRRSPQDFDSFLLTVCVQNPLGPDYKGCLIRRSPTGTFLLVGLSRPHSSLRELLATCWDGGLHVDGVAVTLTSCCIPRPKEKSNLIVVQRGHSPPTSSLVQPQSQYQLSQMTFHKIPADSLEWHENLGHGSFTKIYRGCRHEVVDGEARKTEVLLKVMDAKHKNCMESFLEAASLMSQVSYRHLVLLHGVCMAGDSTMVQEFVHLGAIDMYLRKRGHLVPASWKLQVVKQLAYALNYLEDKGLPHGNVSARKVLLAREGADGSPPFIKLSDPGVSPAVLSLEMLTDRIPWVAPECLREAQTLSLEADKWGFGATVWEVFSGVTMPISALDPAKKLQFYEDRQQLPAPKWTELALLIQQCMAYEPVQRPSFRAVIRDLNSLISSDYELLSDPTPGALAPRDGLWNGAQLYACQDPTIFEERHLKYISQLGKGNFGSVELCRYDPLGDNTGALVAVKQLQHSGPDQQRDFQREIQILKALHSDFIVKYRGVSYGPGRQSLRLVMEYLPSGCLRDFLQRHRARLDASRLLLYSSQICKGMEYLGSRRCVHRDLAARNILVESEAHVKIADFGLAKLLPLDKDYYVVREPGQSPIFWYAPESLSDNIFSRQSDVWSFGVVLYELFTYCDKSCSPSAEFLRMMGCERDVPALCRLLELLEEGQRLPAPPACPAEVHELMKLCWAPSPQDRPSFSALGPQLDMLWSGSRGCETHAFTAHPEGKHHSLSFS
Sequence of UniProt Q16539 (whole entry, looked up): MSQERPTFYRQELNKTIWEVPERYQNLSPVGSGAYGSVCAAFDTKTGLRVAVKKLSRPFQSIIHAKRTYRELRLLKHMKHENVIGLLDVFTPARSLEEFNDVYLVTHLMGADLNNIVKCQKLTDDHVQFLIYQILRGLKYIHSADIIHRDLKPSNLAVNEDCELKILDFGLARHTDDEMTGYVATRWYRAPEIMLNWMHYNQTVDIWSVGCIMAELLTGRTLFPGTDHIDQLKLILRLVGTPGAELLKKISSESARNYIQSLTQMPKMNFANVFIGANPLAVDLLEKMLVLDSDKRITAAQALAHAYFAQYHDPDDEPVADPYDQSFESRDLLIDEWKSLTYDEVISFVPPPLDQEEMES

Set 1
Target: Fibroblast growth factor receptor 4 (FGFR4, Homo sapiens, UniProt P22455)
Sequence of UniProt P22455 (whole entry, looked up): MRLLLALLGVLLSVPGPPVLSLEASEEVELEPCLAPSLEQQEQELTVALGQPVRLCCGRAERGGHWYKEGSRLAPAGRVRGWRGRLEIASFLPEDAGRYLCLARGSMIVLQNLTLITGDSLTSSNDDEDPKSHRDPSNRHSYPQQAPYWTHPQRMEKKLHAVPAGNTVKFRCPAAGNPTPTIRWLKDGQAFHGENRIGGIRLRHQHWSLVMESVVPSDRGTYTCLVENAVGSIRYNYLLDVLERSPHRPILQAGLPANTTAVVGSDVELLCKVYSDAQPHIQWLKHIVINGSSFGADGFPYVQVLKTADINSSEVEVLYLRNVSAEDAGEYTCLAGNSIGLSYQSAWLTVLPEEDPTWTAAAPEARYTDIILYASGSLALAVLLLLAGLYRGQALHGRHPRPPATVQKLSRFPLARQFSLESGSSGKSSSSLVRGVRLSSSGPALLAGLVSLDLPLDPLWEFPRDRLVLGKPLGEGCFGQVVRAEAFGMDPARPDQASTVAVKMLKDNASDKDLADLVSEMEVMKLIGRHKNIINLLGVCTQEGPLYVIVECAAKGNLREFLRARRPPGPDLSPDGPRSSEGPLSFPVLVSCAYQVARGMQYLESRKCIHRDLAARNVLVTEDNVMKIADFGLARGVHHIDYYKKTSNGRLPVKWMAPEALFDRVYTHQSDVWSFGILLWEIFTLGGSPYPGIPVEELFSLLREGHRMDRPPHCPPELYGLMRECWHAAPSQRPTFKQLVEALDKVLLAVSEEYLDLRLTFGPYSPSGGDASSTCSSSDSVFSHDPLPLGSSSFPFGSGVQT
Effect on: enzyme activity
Action: inhibitor
Concentration: 0.5 µM
Reference: control
For `Cc1cc(Nc2nc(-c3ccccc3)nc3ccccc23)n[nH]1`, the remaining activity was 81.9%.
`CCc1[nH]c(-c2ccc(OC)cc2)nc1-c1ccncc1` gave a remaining activity of 95.9%.
The remaining activity of `CC[n+]1c(/C=C/N(C)c2ccccc2)n(-c2ccccc2)c2ccc(-c3nc4ccccc4s3)cc21` is reported as 84.1%.
`Cc1ccc(NC2=CC(=O)c3sc(C)nc3C2=O)cc1` gave a remaining activity of 86.7%.
`Nc1nc(Nc2ccc(S(N)(=O)=O)cc2)nn1C(=O)c1c(F)cccc1F` has a remaining activity of 90.3%.
`CSc1nc(-c2ccnc(N[C@@H](C)c3ccccc3)c2)c(-c2ccc(F)cc2)[nH]1` (racemic) has a remaining activity of 102%.
With `CC#CC(=O)Nc1cc2c(Nc3ccc(F)c(Cl)c3)ncnc2cn1` the remaining activity was 102%.
With `O=C1Cc2c([nH]c3ccc([N+](=O)[O-])cc23)-c2ccccc2N1` the remaining activity was 90.6%.
The remaining activity of `O=S(=O)(NCCNC/C=C/c1ccc(Br)cc1)c1cccc2cnccc12` is reported as 85.3%.
The remaining activity of `O=C1NC(=O)C(c2c[nH]c3ccccc23)=C1c1c[nH]c2ccccc12` is reported as 87.8%.
The remaining activity of `CC(C)(C)n1nc(Cc2cccc3ccccc23)c2c(N)ncnc21` is reported as 88.4%.
`Fc1ccc(-c2nc3n(c2-c2ccncc2)CCS3)cc1` has a remaining activity of 82.8%.
With `COc1ccc(S(=O)(=O)N(CCO)c2ccccc2CN(C)CC=Cc2ccc(Cl)cc2)cc1` the remaining activity was 98.3%.
`Cc1cncc2cccc(S(=O)(=O)N3CCCN(C(=O)CN)C[C@@H]3C)c12` has a remaining activity of 79.5%.
The remaining activity of `CCCC(=O)Oc1ccc2[nH]c(C(=O)c3cc4ccccc4[nH]3)cc2c1` is reported as 90.9%.
`COc1cc(Nc2c(C#N)cnc3cc(OCCCN4CCN(C)CC4)c(OC)cc23)c(Cl)cc1Cl` has a remaining activity of 94.1%.
With `Nc1ncnc2c1cnn2-c1ccccc1` the remaining activity was 94.8%.
`N#CC(=C(N)Sc1ccc(N)cc1)c1ccccc1C(F)(F)F` gave a remaining activity of 108%.
`NC(=O)c1ccc(N(C(N)=O)c2c(F)cccc2F)nc1-c1ccc(F)cc1F` gave a remaining activity of 96.2%.
For `Nc1nccc(-c2c(-c3ccc(F)cc3)ncn2C2CCNCC2)n1`, the remaining activity was 85.7%.
With `CC(=O)c1ccc(N2CCOCC2)cc1O` the remaining activity was 108%.
`Oc1ccc(Nc2nc(-c3ccc(Cl)cc3)cs2)cc1` has a remaining activity of 71.6%.

Set 2
Structure (SMILES): O=C(O)[C@@H]1[C@@H](Cn2nnc3ccccc3c2=O)CC[C@H]1C(=O)c1ccc(OCCC2CCOCC2)cc1
Effect on: cell-free assay
Method: competition with immobilised ligand
Concentration: 1 µM
The remaining binding was 100% (Serine/threonine-protein kinase RIO1 (RIOK1, Homo sapiens, UniProt Q9BRS2)).
TGF-beta receptor type-1 (TGFBR1, Homo sapiens, UniProt P36897) — remaining binding: 100%.
For Serine/threonine-protein kinase VRK2 (VRK2, Homo sapiens, UniProt Q86Y07): remaining binding read 80%.
For SRSF protein kinase 2 (SRPK2, Homo sapiens, UniProt P78362): remaining binding read 100%.
For Protein kinase C iota type (PRKCI, Homo sapiens, UniProt P41743): remaining binding read 100%.
Atypical kinase COQ8B, mitochondrial (COQ8B, Homo sapiens, UniProt Q96D53) — remaining binding: 64%.
For Receptor-type tyrosine-protein kinase FLT3 (FLT3, Homo sapiens, UniProt P36888, ITD): remaining binding read 100%.
For MAP kinase-interacting serine/threonine-protein kinase 1 (MKNK1, Homo sapiens, UniProt Q9BUB5): remaining binding read 93%.
For Serine/threonine-protein kinase WNK1 (WNK1, Homo sapiens, UniProt Q9H4A3): remaining binding read 100%.
The remaining binding was 89% (Mitogen-activated protein kinase 14 (MAPK14, Homo sapiens, UniProt Q16539)).
The remaining binding was 91% (Serine/threonine-protein kinase MRCK alpha (CDC42BPA, Homo sapiens, UniProt Q5VT25)).
For Serine/threonine-protein kinase SIK2 (SIK2, Homo sapiens, UniProt Q9H0K1): remaining binding read 91%.

Set 3
SMILES: O=C(Nc1cnn(-c2csc(C(=O)NC3COC3)c2)c1)Nc1c(F)cccc1Cl
Effect on: enzyme activity
Concentration: 5 µM
Reference: untreated control
For Rhodopsin kinase GRK1 (GRK1, Homo sapiens, UniProt Q15835): remaining activity read 92.7%.
It gave 95.5% for remaining activity (Receptor tyrosine-protein kinase erbB-2 (ERBB2, Homo sapiens, UniProt P04626)).
For Tyrosine-protein kinase JAK3 (JAK3, Homo sapiens, UniProt P52333): remaining activity read 96.2%.
Serine/threonine-protein kinase Nek2 (NEK2, Homo sapiens, UniProt P51955) — remaining activity: 93.3%.
For NUAK family SNF1-like kinase 2 (NUAK2, Homo sapiens, UniProt Q9H093): remaining activity read 95.9%.
It gave 97% for remaining activity (Death-associated protein kinase 1 (DAPK1, Homo sapiens, UniProt P53355)).
Homeodomain-interacting protein kinase 3 (HIPK3, Homo sapiens, UniProt Q9H422) — remaining activity: 96.6%.
Cyclin-dependent kinase 2, with cyclin E2 (CDK2, Homo sapiens, UniProt P24941) — remaining activity: 96.3%.
The remaining activity was 85.4% (Protein-tyrosine kinase 6 (PTK6, Homo sapiens, UniProt Q13882)).

Set 4
SMILES: CC(C)C[C@@H]1NC(=O)[C@@H](N(C)C(=O)[C@H](CC2CCC2)NC(=O)[C@@H]2C[C@@H](F)CN2C(=O)C2(C(F)(F)F)CC(F)(F)C2)CCCCNC(=O)C2(CC2)NC(=O)[C@H](Cc2cc(Cl)ccc2Cl)N(C)C1=O
Time: 6 days
Reference: DMSO
It gave 0.794 and 0.56 and 0.462 for “relative cell count” (NCI-H82 DOX-inducible E2F1 WT, with doxycycline; 200 nM).
NCI-H82 DOX-inducible E2F1 WT, with doxycycline; 20 nM — “relative cell count”: 1 and 0.972 and 0.978.
The “relative cell count” was 0.958 and 0.659 and 0.819 (NCI-H82 DOX-inducible E2F1 WT, no doxycycline; 600 nM).
NCI-H82 DOX-inducible E2F1 WT, no doxycycline; 2 µM — “relative cell count”: 0.537 and 0.546 and 0.407.
Jurkat DOX-inducible E2F1 WT, no doxycycline; 60 nM — “relative cell count”: 0.861 and 0.617 and 0.773.
Jurkat DOX-inducible E2F1 WT, no doxycycline; 600 nM — “relative cell count”: 0.309 and 0.308 and 0.403.
It gave 1.07 and 0.83 and 1.17 for “relative cell count” (NCI-H82 DOX-inducible E2F1 WT, no doxycycline; 60 nM).
It gave 0.18 and 0.254 and 0.193 for “relative cell count” (Jurkat DOX-inducible E2F1 WT, no doxycycline; 2 µM).
